# Published values from different studies.
# Parts stem from different laboratories: compare values within a part only. ± gives the spread as reported.
# Chain of UniProt Q8IW41 (whole entry, looked up): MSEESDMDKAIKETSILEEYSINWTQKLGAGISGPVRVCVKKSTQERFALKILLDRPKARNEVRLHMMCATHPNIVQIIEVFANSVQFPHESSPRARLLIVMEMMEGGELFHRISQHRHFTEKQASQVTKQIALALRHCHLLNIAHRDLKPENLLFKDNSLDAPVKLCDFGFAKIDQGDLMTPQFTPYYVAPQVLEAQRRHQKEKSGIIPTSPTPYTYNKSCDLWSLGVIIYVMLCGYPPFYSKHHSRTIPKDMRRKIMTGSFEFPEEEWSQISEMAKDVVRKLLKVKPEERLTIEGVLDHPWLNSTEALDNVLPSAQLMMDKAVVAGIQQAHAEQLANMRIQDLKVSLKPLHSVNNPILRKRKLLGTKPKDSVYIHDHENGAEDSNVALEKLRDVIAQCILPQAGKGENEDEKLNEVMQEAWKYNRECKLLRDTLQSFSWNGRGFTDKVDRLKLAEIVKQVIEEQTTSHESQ
# Chain of UniProt P53779 (whole entry, looked up): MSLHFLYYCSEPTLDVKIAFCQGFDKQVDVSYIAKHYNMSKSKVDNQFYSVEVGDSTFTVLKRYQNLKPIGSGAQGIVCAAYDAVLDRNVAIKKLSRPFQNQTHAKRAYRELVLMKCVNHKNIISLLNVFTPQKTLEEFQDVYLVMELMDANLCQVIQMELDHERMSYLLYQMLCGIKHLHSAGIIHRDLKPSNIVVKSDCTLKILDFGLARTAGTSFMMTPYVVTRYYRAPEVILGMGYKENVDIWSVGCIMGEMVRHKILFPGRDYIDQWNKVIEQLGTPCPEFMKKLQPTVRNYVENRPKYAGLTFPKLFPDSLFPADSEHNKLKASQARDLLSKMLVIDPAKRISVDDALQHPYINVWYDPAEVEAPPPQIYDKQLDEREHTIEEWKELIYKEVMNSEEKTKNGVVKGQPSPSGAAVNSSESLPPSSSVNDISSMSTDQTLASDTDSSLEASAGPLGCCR
# Chain of UniProt P54762 (whole entry, looked up): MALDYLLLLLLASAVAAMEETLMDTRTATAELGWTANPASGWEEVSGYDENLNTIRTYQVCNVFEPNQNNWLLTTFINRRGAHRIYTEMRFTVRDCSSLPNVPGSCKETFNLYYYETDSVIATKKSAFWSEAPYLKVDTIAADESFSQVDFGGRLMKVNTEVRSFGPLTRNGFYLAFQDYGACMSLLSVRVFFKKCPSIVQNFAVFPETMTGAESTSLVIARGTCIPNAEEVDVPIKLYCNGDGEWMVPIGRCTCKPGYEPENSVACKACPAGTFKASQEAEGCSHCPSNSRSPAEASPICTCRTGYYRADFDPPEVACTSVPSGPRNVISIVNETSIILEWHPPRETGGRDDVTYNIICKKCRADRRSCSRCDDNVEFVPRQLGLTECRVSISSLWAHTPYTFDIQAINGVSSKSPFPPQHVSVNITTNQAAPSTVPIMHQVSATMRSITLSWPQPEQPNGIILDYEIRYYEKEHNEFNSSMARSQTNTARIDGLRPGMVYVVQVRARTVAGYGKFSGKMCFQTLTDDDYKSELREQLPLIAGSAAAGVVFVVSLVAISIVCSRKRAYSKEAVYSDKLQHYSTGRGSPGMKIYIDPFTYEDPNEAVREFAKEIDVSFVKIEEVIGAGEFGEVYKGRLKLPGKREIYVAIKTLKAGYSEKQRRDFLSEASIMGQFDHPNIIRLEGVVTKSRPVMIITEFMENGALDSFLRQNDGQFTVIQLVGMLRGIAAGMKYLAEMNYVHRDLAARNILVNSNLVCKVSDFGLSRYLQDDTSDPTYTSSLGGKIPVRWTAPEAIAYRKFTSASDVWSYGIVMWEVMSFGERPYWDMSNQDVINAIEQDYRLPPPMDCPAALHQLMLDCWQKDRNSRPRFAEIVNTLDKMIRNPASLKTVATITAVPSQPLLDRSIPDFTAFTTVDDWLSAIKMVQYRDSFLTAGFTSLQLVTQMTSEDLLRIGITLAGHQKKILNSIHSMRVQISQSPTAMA
# Chain of UniProt O75676 (whole entry, looked up): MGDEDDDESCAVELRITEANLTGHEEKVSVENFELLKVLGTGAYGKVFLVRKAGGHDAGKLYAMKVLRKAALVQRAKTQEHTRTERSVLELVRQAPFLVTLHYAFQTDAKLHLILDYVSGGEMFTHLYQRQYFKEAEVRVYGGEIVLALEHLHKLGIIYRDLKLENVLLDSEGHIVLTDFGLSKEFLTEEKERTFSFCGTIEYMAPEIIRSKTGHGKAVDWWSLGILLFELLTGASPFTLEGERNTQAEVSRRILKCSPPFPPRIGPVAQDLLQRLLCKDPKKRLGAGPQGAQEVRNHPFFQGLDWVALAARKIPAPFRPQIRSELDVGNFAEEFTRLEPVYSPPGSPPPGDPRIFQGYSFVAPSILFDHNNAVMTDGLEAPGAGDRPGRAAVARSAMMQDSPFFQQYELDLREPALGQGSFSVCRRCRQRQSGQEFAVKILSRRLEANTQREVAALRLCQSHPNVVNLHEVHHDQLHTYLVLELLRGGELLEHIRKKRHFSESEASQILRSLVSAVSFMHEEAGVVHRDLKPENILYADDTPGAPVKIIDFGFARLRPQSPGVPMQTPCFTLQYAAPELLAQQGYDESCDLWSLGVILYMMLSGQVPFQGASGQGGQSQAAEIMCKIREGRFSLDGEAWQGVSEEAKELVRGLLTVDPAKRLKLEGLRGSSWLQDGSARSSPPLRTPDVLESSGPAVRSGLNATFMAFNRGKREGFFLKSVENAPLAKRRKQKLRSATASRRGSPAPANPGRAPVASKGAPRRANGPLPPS
# Chain of UniProt O96013 (whole entry, looked up): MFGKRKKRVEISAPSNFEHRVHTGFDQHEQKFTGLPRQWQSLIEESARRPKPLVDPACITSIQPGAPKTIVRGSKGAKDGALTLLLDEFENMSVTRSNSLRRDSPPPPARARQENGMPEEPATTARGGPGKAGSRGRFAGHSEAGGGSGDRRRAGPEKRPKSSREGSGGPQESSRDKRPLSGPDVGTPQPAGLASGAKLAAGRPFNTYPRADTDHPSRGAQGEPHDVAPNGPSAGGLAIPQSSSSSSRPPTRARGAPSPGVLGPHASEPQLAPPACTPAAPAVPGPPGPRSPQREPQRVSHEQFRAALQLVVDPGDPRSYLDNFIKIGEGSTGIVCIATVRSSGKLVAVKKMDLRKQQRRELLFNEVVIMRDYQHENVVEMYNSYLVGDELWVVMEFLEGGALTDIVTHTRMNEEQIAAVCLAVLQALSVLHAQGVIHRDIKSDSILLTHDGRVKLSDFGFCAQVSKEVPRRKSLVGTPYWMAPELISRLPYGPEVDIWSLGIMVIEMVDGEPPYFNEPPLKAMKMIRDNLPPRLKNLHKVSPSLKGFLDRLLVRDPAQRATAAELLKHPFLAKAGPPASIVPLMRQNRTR

# Series 1 — read-out: binding; method: competition with immobilised ligand; tested at: 1 µM
# Structure (SMILES): COc1cc(-c2nc3ccc(C(=O)NCCCN4CCN(c5cccc(C)c5C)CC4)cc3n2C2CCC2)cc(OC)c1OC
target,remaining binding
"Serine/threonine-protein kinase MRCK beta (CDC42BPB, Homo sapiens, UniProt Q9Y5S2)",83%
"Ribosomal protein S6 kinase alpha-4, N-terminal kinase domain (RPS6KA4, Homo sapiens, UniProt O75676)",100%
"Epidermal growth factor receptor (EGFR, Homo sapiens, UniProt P00533, L861Q)",76%
"Serine/threonine-protein kinase PAK 4 (PAK4, Homo sapiens, UniProt O96013)",93%
"Epidermal growth factor receptor (EGFR, Homo sapiens, UniProt P00533, G719C)",86%
"Mitogen-activated protein kinase 10 (MAPK10, Homo sapiens, UniProt P53779)",83%
"Ephrin type-B receptor 1 (EPHB1, Homo sapiens, UniProt P54762)",95%
"MAP kinase-activated protein kinase 5 (MAPKAPK5, Homo sapiens, UniProt Q8IW41)",75%

# Series 2 — organism: Leishmania donovani; read-out: parasite growth; cells: THP-1; setting: intracellular, amastigote
SMILES,IC50 [µM]
Clc1ccc2nc3c(c(Nc4ccc5c(c4)OCCO5)c2c1)CCC3,9.47
Fc1cccc(Nc2c3c(nc4ccccc24)CCC3)c1,5.46
CCOC(=O)c1ccc(Nc2c3c(nc4ccccc24)CCC3)cc1,9.57
COc1ccc(Nc2c3c(nc4ccccc24)CCC3)cc1,4.87
COC(=O)c1ccc(Nc2c3c(nc4ccccc24)CCC3)cc1,9.87
Cc1ccc2nc3c(c(Nc4ccc(O)cc4)c2c1)CCC3,6.87
Cc1ccc(Nc2c3c(nc4ccccc24)CCC3)cc1,4.58
Clc1ccc2nc3c(c(Nc4ccc(Oc5ccccc5)cc4)c2c1)CCC3,6.82

# Series 3 — action: inhibitor; method: L-[14C]leucine uptake; cells: CHO-BC cells; together with: L-leucine 150 µM
# Target: Sodium-dependent neutral amino acid transporter B(0)AT1 (SLC6A19, Homo sapiens, UniProt Q695T7)
# Chain of UniProt Q695T7 (whole entry, looked up): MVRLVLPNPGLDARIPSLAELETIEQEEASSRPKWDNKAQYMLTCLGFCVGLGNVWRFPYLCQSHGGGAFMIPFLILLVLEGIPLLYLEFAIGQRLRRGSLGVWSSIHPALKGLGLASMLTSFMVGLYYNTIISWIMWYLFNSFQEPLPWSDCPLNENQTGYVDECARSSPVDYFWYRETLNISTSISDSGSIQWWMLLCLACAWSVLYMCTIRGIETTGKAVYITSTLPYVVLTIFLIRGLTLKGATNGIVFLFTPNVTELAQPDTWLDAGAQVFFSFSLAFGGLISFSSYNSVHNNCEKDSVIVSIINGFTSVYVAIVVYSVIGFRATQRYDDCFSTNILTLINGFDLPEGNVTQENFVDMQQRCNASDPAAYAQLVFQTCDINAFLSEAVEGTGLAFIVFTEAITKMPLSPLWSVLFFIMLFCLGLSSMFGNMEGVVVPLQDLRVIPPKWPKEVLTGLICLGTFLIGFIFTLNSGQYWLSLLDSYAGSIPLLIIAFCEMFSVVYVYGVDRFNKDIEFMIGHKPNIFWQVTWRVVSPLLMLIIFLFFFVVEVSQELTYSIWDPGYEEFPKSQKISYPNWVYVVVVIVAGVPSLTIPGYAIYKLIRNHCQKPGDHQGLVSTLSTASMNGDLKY
Compound,IC50 [µM]
CCNC(=O)COc1cc(C)c(Cl)c(C)c1,3 ± 0.4
Cc1cc(NCC(=O)NC(C)C)cc(C)c1Cl,1.2 ± 0.1
Cc1cc(NCC(=O)NC(C)C)cc(C)c1Br,0.9 ± 0.2
CC(C)NC(=O)COc1ccc(Br)cc1,11 ± 3
CC(C)NC(=O)COc1cccc2ccccc12,6 ± 2
CC(C)NC(=O)COc1ccc(Cl)cc1,37 ± 33
CCCNC(=O)COc1cc(C)c(Cl)c(C)c1,4 ± 1.5
Cc1cc(OCC(=O)NC(C)C)ccc1I,0.7 ± 0.1

# Further values, each from its own experiment
SMILES,cell line,setting,quantity,result
Cn1cc(-c2cccc(CN3CCC4(CC3)COc3c4ccc4c3CN([C@H]3CCC(=O)NC3=O)C4=O)c2)cn1,Caco-2,basolateral to apical,Papp,26.4 ×10⁻⁶ cm/s

# Excerpt of the above (series 3):
Compound,IC50 [µM]
Cc1cc(OCC(=O)NC(C)C)ccc1I,0.7 ± 0.1
CC(C)NC(=O)COc1ccc(Br)cc1,11 ± 3
